Published values gathered from unrelated publications.
Each line is one published result; not all experiments were run side by side.
Organism: Streptococcus pyogenes

`CCCCCCCCCCCCCCCCCCSCC1OC(OC2C(N)CC(N)C(OC3OC(CN)C(O)CC3N)C2O)C(O)C(N)C1O` (centres unmarked) has an MIC of > 150 µg/mL (M12 MGAS9429).
For `N#Cc1ccc(-c2c[nH]c(CNC(=O)Nc3ncc(Sc4ccccn4)s3)n2)cc1`, the MIC was 0.125 µM (broth microdilution; ATCC 19615; without verapamil).
`CC1(C)S[C@@H]2[C@H](NC(=O)[C@H](NC(=O)C3=C(O)C(c4ccccc4F)NC3=O)c3ccccc3)C(=O)N2[C@H]1C(=O)O` (some centres unmarked) has an MIC of 0.39 µg/mL (microbial growth, broth dilution; ATCC700294).
For `CC(C)=CCc1cc2c(cc1O)OCc1c-2oc2c(CC=C(C)C)c(O)ccc12`, MIC read “inactive” (ATCC 19615).
Under “inhibition zone diameter”, `Cc1ncc([N+](=O)[O-])n1CCOCc1nnc(SCC(=O)c2ccc([N+](=O)[O-])cc2)o1` is recorded as 10 to 15 mm (DMSO; 60 µg/mL, 24 h, 37 °C).
Under MIC, `COc1c(CC=C(C)C)c(O)cc2c1-c1oc3c(CC=C(C)C)c(O)ccc3c1CO2` is recorded as “inactive” (ATCC 19615).
The MIC of `CCCCCCSCC1OC(OC2C(N)CC(N)C(OC3OC(CN)C(O)CC3N)C2O)C(O)C(N)C1O` (centres unmarked) is reported as > 150 µg/mL (M12 MGAS9429).
For `COc1ccc(C(=O)CSc2nnc(COCCn3c([N+](=O)[O-])cnc3C)o2)cc1F`, “inhibition zone diameter” read ≥ 20 mm (DMSO; 60 µg/mL, 24 h, 37 °C).
`CC(C)=CCc1cc([C@@H]2CC(=O)c3c(O)cc(O)c(CC=C(C)C)c3O2)cc(CC=C(C)C)c1O` gave an MIC of 128 µg/mL (ATCC 19615).
`Cc1ncc([N+](=O)[O-])n1CCOCc1nnc(SCC(=O)c2ccc(Br)cc2)o1`: “inhibition zone diameter” 15 to 20 mm (DMSO; 60 µg/mL, 24 h, 37 °C).
The MBC/MIC ratio of `O=C(O)CN1C(=O)/C(=C/c2ccc(-c3ccc(N(c4ccccc4)c4ccccc4)cc3)cc2)NC1=S` is reported as 4 (broth microdilution; ATCC 19615).

Some of these lines once more:
For `CC(C)=CCc1cc2c(cc1O)OCc1c-2oc2c(CC=C(C)C)c(O)ccc12`, MIC read “inactive” (ATCC 19615).
